Assay results gathered from unrelated publications.
A part holds a random share of what one study measured.

Block 1 — target: Sox-I, HMG box (Salpingoeca helianthica); technique: Spec-seq; form: double-stranded DNA, one strand shown; medium: in vitro; tested at: not given; notes: whole probe, mean of replicates; baseline: not given; reading: lower = stronger binding; constant ends, left off below: GAGTCGTCTCGTCAGCAC … CCGTAGAGCACTCAGGTC
Construct (chain): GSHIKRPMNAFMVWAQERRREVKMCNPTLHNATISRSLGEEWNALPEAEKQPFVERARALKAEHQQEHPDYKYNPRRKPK
For `GAGGGTT`, “relative binding energy” read 1.07 ln ratio.
For `CATGGGA`, “relative binding energy” read 1.01 ln ratio.
Under “relative binding energy”, `AGTGGTT` is recorded as 0.146 ln ratio.
For `CATGCTG`, “relative binding energy” read 0.531 ln ratio.
`CATACCC` — result for “relative binding energy”: 0.67 ln ratio.

Block 2 — technique: protein binding microarray; form: double-stranded DNA, one strand shown; medium: in vitro; tested at: not given; baseline: not given; reading: higher = stronger binding
Target: Histone acetyltransferase KAT6A, both winged helices, GST fusion (KAT6A, Homo sapiens, UniProt Q92794, residues 1-181)
Notes: 8-mer, flanks averaged, mean of 2 arrays, mostly near background
Target sequence (chain): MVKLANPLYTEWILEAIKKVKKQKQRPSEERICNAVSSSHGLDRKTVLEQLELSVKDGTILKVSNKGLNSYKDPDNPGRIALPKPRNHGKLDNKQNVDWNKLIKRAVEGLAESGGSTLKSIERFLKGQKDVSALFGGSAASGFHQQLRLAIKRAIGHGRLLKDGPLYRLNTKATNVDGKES
For `GCTTCATA`, the E-score was 0.0828.
For `CCCGATGA`, the E-score was 0.117.
The E-score of `CATTAATA` is reported as -0.052.
`CCACGGTC` has an E-score of 0.0461.
With `ACTCCCGG` the E-score was 0.145.

Block 3 — technique: RNA Bind-n-Seq; form: RNA; medium: in vitro; tested at: not given; baseline: input RNA pool; reading: higher = stronger binding
Target: RING finger protein unkempt homolog, zinc fingers 1-6, GST-SBP tag (UNK, Homo sapiens, UniProt Q9C0B0, residues 30-357)
Chain of UniProt Q9C0B0 (30-357, looked up): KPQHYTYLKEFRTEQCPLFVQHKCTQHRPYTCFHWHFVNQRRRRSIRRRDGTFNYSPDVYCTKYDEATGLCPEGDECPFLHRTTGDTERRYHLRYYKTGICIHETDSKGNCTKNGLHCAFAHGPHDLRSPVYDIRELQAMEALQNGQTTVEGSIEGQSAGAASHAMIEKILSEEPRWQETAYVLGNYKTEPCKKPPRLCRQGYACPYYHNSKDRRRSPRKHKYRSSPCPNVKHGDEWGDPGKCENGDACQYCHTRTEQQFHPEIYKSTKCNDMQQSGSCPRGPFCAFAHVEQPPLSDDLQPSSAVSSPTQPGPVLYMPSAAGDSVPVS
Notes: RNA with constant flanks, human and mouse sites, ends assumed
With `GGGAGUUCUACAGUCCGACGAUCGAGGUUGUUAAGGACAAAGCAGGACCUCAUAAGGAAAUCUAUCCCUAUGUCAUCCAGGAACUUAGACCAACUUUAAAUGAAUUGGGAAUCUCCACUCCAGAGGAGCUGGGCCUUGACAAACAACAGAGGAUUGAGCAUCA` the bound/input enrichment was 0.211 ratio.
`GGGAGUUCUACAGUCCGACGAUCCUCAUUCAGGACUCAGUGACUGGUUUUUUUUUGUUUGUUUGUUUGUUUUGUUUUGUUUUGUUUUUCUUAAUCACAAGGGCGUGGGUCAGCCUCCCCUAGGACUUCAUGUCUGUAUAUUUCCAACAGAGGAUUGAGCAUCA` has a bound/input enrichment of 2.21 ratio.
For `GGGAGUUCUACAGUCCGACGAUCUACUUGGCAUAUCGAAAUUUUAUGAUUGACACGUAUCGUCUAAACCCCCAAGAGUAUUUAACUAGCACUGCUUGUCGGAGGAACUUGACUGGAGAUGUGUGUGCUGUGAUGAGGGUCCAUCAACAGAGGAUUGAGCAUCA`, the bound/input enrichment was 0.44 ratio.

Other studies, line by line
For `PhoQ, residues 284 288 289 292 302 303 AGGCYF`, the fold induction was 23.9 (PhoP, residues 12 14 15 18 19 LYHSL (Escherichia coli, UniProt P23836); Sort-seq, item: YFP reporter; E. coli; PhoQ-PhoP variant library, with: 10 µM Mg2+; baseline: high Mg2+ state, higher = stronger signaling).

For quick reference, copied from above (block 2):
The E-score of `CATTAATA` is reported as -0.052.
For `CCCGATGA`, the E-score was 0.117.
